Experimental data collected from several papers.
Every numbered part comes from another study and shows a few of its results, in no order. Positions count from the first letter of the parent shown.
UniProt P21709, sequence (whole entry, looked up): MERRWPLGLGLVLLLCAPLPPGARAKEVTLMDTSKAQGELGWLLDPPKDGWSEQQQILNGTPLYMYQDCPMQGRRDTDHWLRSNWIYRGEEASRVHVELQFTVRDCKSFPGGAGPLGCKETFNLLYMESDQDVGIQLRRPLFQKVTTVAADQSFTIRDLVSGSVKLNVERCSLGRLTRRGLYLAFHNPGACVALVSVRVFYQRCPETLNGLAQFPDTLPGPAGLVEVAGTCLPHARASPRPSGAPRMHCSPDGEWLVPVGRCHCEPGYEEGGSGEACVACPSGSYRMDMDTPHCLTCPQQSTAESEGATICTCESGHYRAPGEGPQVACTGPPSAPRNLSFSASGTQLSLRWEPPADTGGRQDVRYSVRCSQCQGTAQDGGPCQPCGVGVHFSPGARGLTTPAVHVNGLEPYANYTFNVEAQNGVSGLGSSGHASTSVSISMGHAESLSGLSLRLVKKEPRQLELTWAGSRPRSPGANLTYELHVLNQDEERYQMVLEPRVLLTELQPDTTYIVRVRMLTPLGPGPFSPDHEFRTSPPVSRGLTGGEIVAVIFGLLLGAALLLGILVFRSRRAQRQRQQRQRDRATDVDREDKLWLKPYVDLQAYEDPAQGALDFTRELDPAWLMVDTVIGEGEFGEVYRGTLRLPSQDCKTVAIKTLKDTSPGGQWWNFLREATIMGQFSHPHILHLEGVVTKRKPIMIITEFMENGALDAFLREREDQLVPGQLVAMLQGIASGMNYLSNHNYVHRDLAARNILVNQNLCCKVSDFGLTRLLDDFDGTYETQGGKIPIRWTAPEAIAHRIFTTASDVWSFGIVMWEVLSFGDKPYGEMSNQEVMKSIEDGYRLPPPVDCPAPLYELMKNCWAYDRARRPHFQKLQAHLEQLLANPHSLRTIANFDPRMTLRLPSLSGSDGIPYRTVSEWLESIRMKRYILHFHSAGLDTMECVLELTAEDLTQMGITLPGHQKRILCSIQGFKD
UniProt P49674, sequence (whole entry, looked up): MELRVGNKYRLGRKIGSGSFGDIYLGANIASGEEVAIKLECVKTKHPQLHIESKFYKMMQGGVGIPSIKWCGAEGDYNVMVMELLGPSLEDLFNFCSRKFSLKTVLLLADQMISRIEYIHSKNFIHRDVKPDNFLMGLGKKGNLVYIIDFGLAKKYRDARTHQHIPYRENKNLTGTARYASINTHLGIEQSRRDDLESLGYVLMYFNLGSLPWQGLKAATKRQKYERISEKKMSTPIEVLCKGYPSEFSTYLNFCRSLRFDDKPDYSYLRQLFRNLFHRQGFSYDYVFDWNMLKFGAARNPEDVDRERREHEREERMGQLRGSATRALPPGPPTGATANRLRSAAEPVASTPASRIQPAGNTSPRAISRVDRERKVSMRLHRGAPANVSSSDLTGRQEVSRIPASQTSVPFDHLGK
UniProt O75676, sequence (whole entry, looked up): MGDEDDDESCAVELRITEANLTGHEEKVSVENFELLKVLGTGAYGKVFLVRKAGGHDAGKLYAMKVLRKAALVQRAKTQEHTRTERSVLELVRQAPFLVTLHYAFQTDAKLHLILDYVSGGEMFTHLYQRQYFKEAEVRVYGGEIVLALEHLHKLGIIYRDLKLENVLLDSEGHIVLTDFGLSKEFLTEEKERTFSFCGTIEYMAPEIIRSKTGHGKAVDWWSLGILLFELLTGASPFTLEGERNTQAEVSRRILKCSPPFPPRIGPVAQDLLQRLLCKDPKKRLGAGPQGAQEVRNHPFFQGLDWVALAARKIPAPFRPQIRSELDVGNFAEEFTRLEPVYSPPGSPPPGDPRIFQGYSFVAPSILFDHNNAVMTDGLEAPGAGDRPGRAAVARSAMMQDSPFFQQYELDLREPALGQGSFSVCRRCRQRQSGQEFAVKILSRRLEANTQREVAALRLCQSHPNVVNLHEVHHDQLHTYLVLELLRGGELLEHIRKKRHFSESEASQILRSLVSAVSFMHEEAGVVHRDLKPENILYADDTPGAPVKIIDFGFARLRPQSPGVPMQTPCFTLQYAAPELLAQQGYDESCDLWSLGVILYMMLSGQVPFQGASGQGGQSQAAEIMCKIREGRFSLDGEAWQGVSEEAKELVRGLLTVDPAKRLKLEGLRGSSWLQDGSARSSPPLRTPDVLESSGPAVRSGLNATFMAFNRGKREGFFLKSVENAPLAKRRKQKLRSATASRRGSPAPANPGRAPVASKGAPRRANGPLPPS
UniProt P49137, sequence (whole entry, looked up): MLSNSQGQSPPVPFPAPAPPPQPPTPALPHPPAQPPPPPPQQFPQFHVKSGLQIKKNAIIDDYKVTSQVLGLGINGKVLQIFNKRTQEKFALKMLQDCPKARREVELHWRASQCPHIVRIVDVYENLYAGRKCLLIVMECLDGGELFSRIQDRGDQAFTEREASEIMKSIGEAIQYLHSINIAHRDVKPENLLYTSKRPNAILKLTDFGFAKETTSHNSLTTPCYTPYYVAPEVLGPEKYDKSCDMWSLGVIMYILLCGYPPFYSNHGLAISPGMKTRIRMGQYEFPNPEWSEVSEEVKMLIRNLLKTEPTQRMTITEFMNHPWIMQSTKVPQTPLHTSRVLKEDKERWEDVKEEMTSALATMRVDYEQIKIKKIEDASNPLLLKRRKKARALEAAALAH
UniProt Q9Y616, sequence (whole entry, looked up): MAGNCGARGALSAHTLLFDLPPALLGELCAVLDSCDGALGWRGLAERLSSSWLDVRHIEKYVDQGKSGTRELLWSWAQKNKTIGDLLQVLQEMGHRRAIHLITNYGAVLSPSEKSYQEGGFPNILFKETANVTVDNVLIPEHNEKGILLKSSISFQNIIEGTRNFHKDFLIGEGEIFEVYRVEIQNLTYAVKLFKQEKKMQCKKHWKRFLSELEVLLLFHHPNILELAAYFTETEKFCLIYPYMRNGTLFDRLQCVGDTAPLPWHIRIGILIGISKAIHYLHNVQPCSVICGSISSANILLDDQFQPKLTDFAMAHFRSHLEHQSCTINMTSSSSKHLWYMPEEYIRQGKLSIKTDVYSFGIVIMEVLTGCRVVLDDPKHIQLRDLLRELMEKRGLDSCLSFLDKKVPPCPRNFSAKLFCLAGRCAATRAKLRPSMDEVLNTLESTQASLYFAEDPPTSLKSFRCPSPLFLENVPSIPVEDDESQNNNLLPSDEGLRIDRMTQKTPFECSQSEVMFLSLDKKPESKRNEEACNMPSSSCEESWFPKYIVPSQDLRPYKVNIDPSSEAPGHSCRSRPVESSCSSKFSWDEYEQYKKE
UniProt Q16566, sequence (whole entry, looked up): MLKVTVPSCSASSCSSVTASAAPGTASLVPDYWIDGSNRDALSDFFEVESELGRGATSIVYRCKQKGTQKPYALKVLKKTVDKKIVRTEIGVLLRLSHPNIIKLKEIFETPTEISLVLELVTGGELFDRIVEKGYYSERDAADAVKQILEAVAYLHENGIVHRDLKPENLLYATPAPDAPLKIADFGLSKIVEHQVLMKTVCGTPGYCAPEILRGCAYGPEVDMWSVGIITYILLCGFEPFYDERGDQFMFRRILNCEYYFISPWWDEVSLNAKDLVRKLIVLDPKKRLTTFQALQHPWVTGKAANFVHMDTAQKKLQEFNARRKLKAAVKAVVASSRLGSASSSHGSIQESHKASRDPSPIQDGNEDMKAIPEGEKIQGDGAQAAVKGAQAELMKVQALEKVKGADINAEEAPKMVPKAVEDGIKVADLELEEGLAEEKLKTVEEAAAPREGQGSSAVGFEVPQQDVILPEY
UniProt O94921, sequence (whole entry, looked up): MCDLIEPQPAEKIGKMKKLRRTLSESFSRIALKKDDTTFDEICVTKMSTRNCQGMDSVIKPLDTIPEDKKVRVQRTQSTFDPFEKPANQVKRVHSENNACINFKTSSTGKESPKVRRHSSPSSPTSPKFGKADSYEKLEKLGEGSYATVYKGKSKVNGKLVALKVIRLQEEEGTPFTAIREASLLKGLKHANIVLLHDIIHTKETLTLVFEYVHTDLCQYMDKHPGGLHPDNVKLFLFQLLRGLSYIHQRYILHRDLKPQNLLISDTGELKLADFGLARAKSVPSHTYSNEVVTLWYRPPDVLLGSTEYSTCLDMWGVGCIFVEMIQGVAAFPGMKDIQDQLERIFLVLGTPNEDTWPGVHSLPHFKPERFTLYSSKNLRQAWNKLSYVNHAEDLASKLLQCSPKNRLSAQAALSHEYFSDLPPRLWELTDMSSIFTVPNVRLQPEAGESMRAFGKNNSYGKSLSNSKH
UniProt P57059, sequence (whole entry, looked up): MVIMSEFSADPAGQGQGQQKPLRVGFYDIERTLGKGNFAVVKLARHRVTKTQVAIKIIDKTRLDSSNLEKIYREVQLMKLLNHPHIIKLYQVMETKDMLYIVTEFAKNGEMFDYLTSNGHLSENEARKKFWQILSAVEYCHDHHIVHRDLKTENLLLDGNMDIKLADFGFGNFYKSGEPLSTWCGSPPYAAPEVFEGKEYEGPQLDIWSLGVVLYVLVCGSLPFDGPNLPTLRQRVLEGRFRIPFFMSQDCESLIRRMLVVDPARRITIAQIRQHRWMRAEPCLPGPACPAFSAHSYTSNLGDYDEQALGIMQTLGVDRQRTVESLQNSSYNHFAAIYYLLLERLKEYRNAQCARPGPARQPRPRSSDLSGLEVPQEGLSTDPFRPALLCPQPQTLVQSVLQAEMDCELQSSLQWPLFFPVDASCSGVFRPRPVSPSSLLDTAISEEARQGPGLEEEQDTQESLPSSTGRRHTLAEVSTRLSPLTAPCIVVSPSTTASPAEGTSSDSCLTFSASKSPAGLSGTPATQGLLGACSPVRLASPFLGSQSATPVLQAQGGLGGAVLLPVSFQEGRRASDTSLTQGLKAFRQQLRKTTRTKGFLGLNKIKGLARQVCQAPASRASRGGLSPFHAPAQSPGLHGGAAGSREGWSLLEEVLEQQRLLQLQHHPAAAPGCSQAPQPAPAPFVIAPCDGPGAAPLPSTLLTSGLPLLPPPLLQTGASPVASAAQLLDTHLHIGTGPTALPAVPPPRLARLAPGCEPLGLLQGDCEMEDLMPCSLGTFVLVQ

Block 1 — observed: peptide-MHC binding; molecule type: peptide; concentration: concentration not given
Target: HLA class I histocompatibility antigen, C alpha chain, allele C*04:01 (Homo sapiens, UniProt P10321)
Molecule | binding
RQWGMGFLL | inactive
FFIQTDAAI | inactive
IYPEWYFLW | inactive
IPVHPRHPY | inactive
FRDRGQHVL | inactive
DTDPLPVVF | inactive
YQRALHTSI | inactive
FPHTELANL | inactive

Block 2 — concentration: 1 µM
SMILES: Cn1cncc1[C@](O)(COc1ccc(C#N)cc1-c1ccc(OC(F)(F)F)cc1)c1ccc(C#N)cc1
target | test | remaining binding [%]
MTOR (Homo sapiens, UniProt P42345) | cell-free assay, competition with immobilised ligand | 57
CAMK4 (Homo sapiens, UniProt Q16566) | cell-free assay, competition with immobilised ligand | 100
CDK14 (Homo sapiens, UniProt O94921) | cell-free assay, competition with immobilised ligand | 86
MAPKAPK2 (Homo sapiens, UniProt P49137) | cell-free assay, competition with immobilised ligand | 63
CDK13 (Homo sapiens, UniProt Q14004) | cell-free assay, competition with immobilised ligand | 67
CDK2 (Homo sapiens, UniProt P24941) | cell-free assay, competition with immobilised ligand | 95
SIK1 (Homo sapiens, UniProt P57059) | competition binding | 95
FLT3 (Homo sapiens, UniProt P36888, D835Y) | cell-free assay, competition with immobilised ligand | 95
EPHA1 (Homo sapiens, UniProt P21709) | cell-free assay, competition with immobilised ligand | 38
IRAK3 (Homo sapiens, UniProt Q9Y616) | cell-free assay, competition with immobilised ligand | 71
Ribosomal protein S6 kinase alpha-4, N-terminal kinase domain (RPS6KA4, Homo sapiens, UniProt O75676) | cell-free assay, competition with immobilised ligand | 89
TSSK3 (Homo sapiens, UniProt Q96PN8) | cell-free assay, competition with immobilised ligand | 98
CSNK1E (Homo sapiens, UniProt P49674) | cell-free assay, competition with immobilised ligand | 77

Block 3 — target: CCNF, cyclin fold, Cln2 fusion (human); technique: yeast growth competition, sequencing; matrix: yeast; setting: strong parent motif; relative to: not given; direction: higher = stronger binding
Starting sequence: viral docking peptide; YKVKRRLVFGADD; partner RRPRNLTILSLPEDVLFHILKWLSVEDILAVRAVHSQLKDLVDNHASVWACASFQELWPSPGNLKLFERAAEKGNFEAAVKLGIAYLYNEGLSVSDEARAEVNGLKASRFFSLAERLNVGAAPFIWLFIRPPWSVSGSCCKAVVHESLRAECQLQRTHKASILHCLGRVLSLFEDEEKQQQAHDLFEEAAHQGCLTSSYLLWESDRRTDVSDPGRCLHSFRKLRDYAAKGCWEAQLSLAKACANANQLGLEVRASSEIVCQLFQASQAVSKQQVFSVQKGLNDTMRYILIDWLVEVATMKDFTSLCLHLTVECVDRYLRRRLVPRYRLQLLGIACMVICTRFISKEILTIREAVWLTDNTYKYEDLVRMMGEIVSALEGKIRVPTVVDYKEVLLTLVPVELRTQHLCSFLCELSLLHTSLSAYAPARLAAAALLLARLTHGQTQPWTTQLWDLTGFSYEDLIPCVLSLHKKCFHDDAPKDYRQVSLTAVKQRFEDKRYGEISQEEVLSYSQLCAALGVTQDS
Substitution | normalised enrichment score
YKVKRRLVFGALD [D12L] | 8.84
YKVKSRLVFGADD [R5S] | 1.62
YKVKRRLVLGADD [F9L] | 8.42
YKVKRRLVFGQDD [A11Q] | 8.52
YKVKRRTVFGADD [L7T] | 0.464
YKVKRRLVFRADD [G10R] | 7.95
YKVKRYLVFGADD [R6Y] | 7.65
YKVKRVLVFGADD [R6V] | 8.74

Single results of other studies
Structure (SMILES) | target | test | setting | scale | quantity | result
O=C1NC(=O)c2c1c1c3ccccc3n3c1c1c2c2ccccc2n1[C@H]1CC[C@@H]3O1 | Ribosomal protein S6 kinase beta-1 (RPS6KB1, Homo sapiens, UniProt P23443) | enzyme activity, inhibitor | 0.5 µM | relative to: control | remaining activity | 2.38%

Some of these lines once more (block 1):
Molecule | binding
FRDRGQHVL | inactive
RQWGMGFLL | inactive
